# Published values pooled from the literature.
# Numbers after ± are the reported error.
# Organism: Leishmania donovani
SMILES,assay,test system,setting,IC50
CC/C(=C\c1ccc(OCC(=O)NC(Cc2ccccc2)C(=O)N2CCOCC2)cc1)[N+](=O)[O-] (stereo not shown),,"macrophages, intracellular amastigotes",72 h,8.07 µM
O=C1CSC(=S)N1/N=C/c1cn(Cc2cccc(Cl)c2)c2ccc([N+](=O)[O-])cc12,"parasite growth, resazurin",THP-1,"24 h, intracellular, amastigote",> 10 µM
COc1ccc2[nH]c3cc(OC)c(C=O)cc3c2c1,viability,axenic amastigotes,72 h,> 40 µg/mL
O=Cc1cc(Cn2ccc(=O)[nH]c2=O)ccc1O,"parasite growth, SYBR Green",,amastigote,> 100 µM
N=C(N)c1ccc(OCCCCCOc2ccc(C(=N)N)cc2)cc1,Alamar Blue,axenic amastigotes,"72 h, 37 °C",2.1 µg/mL
Cc1nn(Cc2ccc(O)c(C=O)c2)c(=O)[nH]c1=O,"parasite growth, SYBR Green",,amastigote,29 µM
C[C@@H]1[C@H](O)[C@@H](C)/C=C/C=C/C=C/C=C/C=C/C=C/C=C/[C@H](O[C@@H]2O[C@H](C)[C@@H](O)[C@H](N)[C@@H]2O)C[C@@H]2O[C@](O)(C[C@@H](O)C[C@@H](O)[C@H](O)CC[C@@H](O)C[C@@H](O)CC(=O)O[C@H]1C)C[C@H](O)[C@H]2C(=O)O,parasite growth,THP-1,"intracellular, amastigote",0.272 µM
O=C1CSC(=S)N1/N=C/c1cn(Cc2ccccc2)c2ccc([N+](=O)[O-])cc12,"parasite growth, resazurin",THP-1,"24 h, intracellular, amastigote",> 10 µM
N=C(N)c1ccc(OCCCCCOc2ccc(C(=N)N)cc2)cc1,viability,promastigotes,"72 h, 26 °C",1.2 µg/mL
C[C@@H]1[C@H](O)[C@@H](C)/C=C/C=C/C=C/C=C/C=C/C=C/C=C/[C@H](O[C@@H]2O[C@H](C)[C@@H](O)[C@H](N)[C@@H]2O)C[C@@H]2O[C@](O)(C[C@@H](O)C[C@@H](O)[C@H](O)CC[C@@H](O)C[C@@H](O)CC(=O)O[C@H]1C)C[C@H](O)[C@H]2C(=O)O,,Bob promastigotes,120 h,0.03 µM
O=C1CSC(=S)N1/N=C/c1cn(Cc2ccc(F)cc2)c2ccc([N+](=O)[O-])cc12,"parasite growth, resazurin",THP-1,"72 h, intracellular, amastigote",> 10 µM
C[C@@H]1[C@H](O)[C@@H](C)/C=C/C=C/C=C/C=C/C=C/C=C/C=C/[C@H](O[C@@H]2O[C@H](C)[C@@H](O)[C@H](N)[C@@H]2O)C[C@@H]2O[C@](O)(C[C@@H](O)C[C@@H](O)[C@H](O)CC[C@@H](O)C[C@@H](O)CC(=O)O[C@H]1C)C[C@H](O)[C@H]2C(=O)O,"parasite growth, resazurin",,"72 h, amastigote",0.32 µg/mL
COc1ccc2c(c1)c1cc(C=O)c(OC)cc1n2C,viability,promastigotes,"72 h, 26 °C",> 40 µg/mL
C#CCn1cc(/C=N/N2C(=O)CSC2=S)c2cc([N+](=O)[O-])ccc21,"parasite growth, resazurin",THP-1,"72 h, intracellular, amastigote",> 10 µM
CCCCCCCCCCCCCCCCOP(=O)([O-])OCC[N+](C)(C)C,parasite growth,mouse Macrophage,"intracellular, amastigote",4.91 µM
C#CCn1cc(C=O)c2cc([N+](=O)[O-])ccc21,"parasite growth, resazurin",THP-1,"24 h, intracellular, amastigote",> 10 µM
O=Cc1cc(Cn2cc(F)c(=O)[nH]c2=O)ccc1O,"parasite growth, SYBR Green",,amastigote,> 100 µM
O=C1NC(=S)S/C1=C\c1cn(Cc2ccc(F)cc2)c2ccc([N+](=O)[O-])cc12,"parasite growth, resazurin",THP-1,"24 h, intracellular, amastigote",> 10 µM
COc1c(CC(C)O)c2c3c(CC(C)O)c(OC)c(=O)c4c(O)cc5c(c6c(cc(O)c(c1=O)c62)OCO5)c43 (stereo not shown),growth,MHOM/SD/00/1S axenic amastigotes,in dark,0.46 ± 0.05 µM
C#CCn1cc(/C=C2\SC(=S)NC2=O)c2cc([N+](=O)[O-])ccc21,"parasite growth, resazurin",THP-1,"72 h, intracellular, amastigote",> 10 µM
Cc1cn(Cc2ccc(O)c(C=O)c2)c(=O)[nH]c1=O,"parasite growth, SYBR Green",RAW264.7,"intracellular, amastigote",> 100 µM
C[C@@H]1N[C@H](CCCCCCCCCCc2cc(CCCCCCCCCC[C@H]3CC[C@@H](O)[C@@H](C)N3)c[n+]3c2CCC3)CC[C@H]1O,"parasite growth, resazurin",,"72 h, promastigote",1.22 µg/mL

# A few entries again:
SMILES,assay,test system,setting,IC50
COc1ccc2c(c1)c1cc(C=O)c(OC)cc1n2C,viability,promastigotes,"72 h, 26 °C",> 40 µg/mL
C#CCn1cc(/C=N/N2C(=O)CSC2=S)c2cc([N+](=O)[O-])ccc21,"parasite growth, resazurin",THP-1,"72 h, intracellular, amastigote",> 10 µM
Cc1cn(Cc2ccc(O)c(C=O)c2)c(=O)[nH]c1=O,"parasite growth, SYBR Green",RAW264.7,"intracellular, amastigote",> 100 µM
